Published values pooled from the literature.
Lines come from different studies, so protocols differ. Values joined by “and” are separate records of one study, mostly repeats; a detail may differ. ± marks the error that the study gave.

`CNC(=O)C[C@H](Cc1ccncc1)NC(=O)[C@@H](Cc1cccc(Br)c1)NC(=O)[C@@H](N)Cc1ccsc1` has a viability of 0.999 and 1.1 and 0.955 (Huh-7-ACE2; CellTiter-Glo; 0.0977 µM, 48 h, unit not given; reference: DMSO).
With `CCCCCCCCCCCC1CC(=O)N[C@H]([C@H](C)O)C(=O)N[C@@H](CN)C(=O)N[C@@H](CO)C(=O)N[C@@H](Cc2ccc(O)cc2)C(=O)O1` (some centres unmarked) the survival was 98.2% (HEK293; MTT; 3.2 mg).
`Cc1cnccc1-n1[se]c2ccccc2c1=O` has a CC50 of > 100 µM (HPAEpiC; cell growth or viability, MTT; 24 h).
`CNC(=O)C[C@H](Cc1ccncc1)NC(=O)[C@@H](Cc1cccc(Br)c1)NC(=O)[C@@H](N)Cc1cccc(F)c1` has a viability of 1.04 and 0.948 and 1.06 (Huh-7-ACE2; CellTiter-Glo; 0.0061 µM, 48 h, unit not given; reference: DMSO).
`CCCCCCCCCCCCCC(=O)N[C@H]1C(=O)N[C@@H](CN)C(=O)N[C@@H](CO)C(=O)N[C@@H](Cc2ccc(O)cc2)C(=O)O[C@H]1C` has a survival of 83.9% (HEK293; MTT; 32 mg).
For `CC(C)Cc1ccc(C(C)C(=O)[O-])cc1.CC(C)Cc1ccc(C(C)C(=O)[O-])cc1.[Cu+2].c1ccncc1.c1ccncc1` (centres unmarked), the IC50 was > 100 µM (PC-3; cytotoxicity, MTT; 48 h).
The viability of `CNC(=O)CC1CN(C(=O)c2ccc(C(F)(F)F)cn2)CCN1C(=O)c1cccnn1` (centres unmarked) is reported as 0.944 and 0.898 and 0.786 (Huh-7-ACE2; CellTiter-Glo; 0.0488 µM, 48 h, unit not given; reference: DMSO).
`CC(=O)N[C@H]1[C@H](Oc2ccc(C[C@H](NC(=O)CN)C(=O)N[C@@H](CCC(=O)O)C(=O)N[C@H](C(=O)N[C@@H](Cc3c[nH]cn3)C(=O)N[C@@H](Cc3c[nH]cn3)C(=O)N[C@@H](CCC(N)=O)C(=O)N[C@@H](CCCCN)C(=O)N[C@@H](CC(C)C)C(=O)N[C@H](C(=O)N[C@@H](Cc3ccccc3)C(=O)N[C@@H](Cc3ccccc3)C(=O)N[C@@H](C)C(N)=O)C(C)C)C(C)C)cc2)O[C@H](CO)[C@H](O)[C@@H]1O` gave a viability of 96.5% and 90.7% and 100% (SH-SY5Y; CCK-8; 6.25 µM, 24 h; reference: untreated).
For `C#Cc1ccc(N2CCOCC2)c(/C=N/NC(=O)CCl)c1`, the IC50 was 73 µM (THLE-2; cytotoxicity, CellTiter-Glo; 24 h).
`CCCCN(C=O)c1c(CC)nc2ccc(C(=O)N(C)Cc3ccco3)cn12` has an IC50 of 13.6 µM (SH-SY5Y; cytotoxicity, sulforhodamine B; 72 h).
`CC[C@@H](N[C@@H](C)CC(N)=O)c1ccc(Cl)c(Oc2ccccc2)c1F` — result for cytotoxicity: “no effect” (Huh-7 with HCV subgenomic replicon; Alamar Blue; concentration not given).
`CC(C)C[C@H](NC(=O)[C@H](CC(N)=O)NC(=O)[C@H](CCCNC(=N)N)NC(=O)[C@@H](CC(C)C)NC(=O)[C@H](Cc1ccc(-c2ccccc2)cc1)NC(=O)[C@H](CC(=O)O)NC(=O)[C@H](CCCNC(=N)N)NC(=O)[C@@H](CC(C)C)NC(=O)[C@H](CCCCN)NC(=O)[C@H](CCC(N)=O)NC(=O)[C@@H](NC(=O)[C@@H](CC(C)C)NC(=O)[C@H](CCCCN)NC(=O)[C@H](CCCNC(=N)N)NC(=O)[C@H](Cc1ccc(-c2ccccc2)cc1)NC(=O)CN)C(C)C)C(=O)N[C@H](C(N)=O)C(C)C` has an LC50 of 20 µM (HEK293; cell viability, MTS; serum-free).
The viability of `CNC(=O)C[C@H](Cc1ccc(F)cc1)NC(=O)[C@@H](Cc1ccc(Cl)cc1Cl)NC(=O)[C@H](N)Cc1ccccc1[N+](=O)[O-]` is reported as 1.09 and 1.06 and 0.991 (Huh-7-ACE2; CellTiter-Glo; 0.0244 µM, 48 h, unit not given; reference: DMSO).
`NC(=S)N/N=C/c1ccc(OCc2cccc(F)c2)cc1` gave a viability of 37.9% (IMR-32; MTT; 400 µg/mL, 24 h; reference: untreated control).
For `CNC(=O)CC[C@H](Cc1ccccc1)NC(=O)[C@@H](Cc1ccc(Cl)cc1Cl)NC(=O)[C@H](N)Cc1ccccc1[N+](=O)[O-]`, the viability was 0.998 and 0.951 and 0.824 (Huh-7-ACE2; CellTiter-Glo; 0.00153 µM, 48 h, unit not given; reference: DMSO).
`S=c1n(-c2ccccc2)c2c3ccccc3nc3[n+]2[n]1[Ir-3]12([S]3)([c]3cccc4ccc5ccc[n+]1c5c34)[c]1cccc3ccc4ccc[n+]2c4c13` — result for “cellular iridium uptake”: 1.01 ± 0.18 fmol/cell (MRC9; ICP-MS; 10 µM, 24 h, 37 °C).
The hemolysis of `CN(C)CCCNC(=O)[C@@H]1NC(=O)[C@@H]2Cc3ccc(cc3)Oc3cc4cc(c3O)-c3ccc5c(c[nH]c5c3)C[C@@H](NC(=O)C(NC(=O)CCCCCN)c3ccc(O)cc3)C(=O)N[C@H](c3ccc(O)cc3)C(=O)N[C@H]4C(=O)N[C@@H](C(=O)N2C)c2ccc(cc2)Oc2cc1ccc2O` (some centres unmarked) is reported as 0% (human red blood cells; PBS; 512 µg/mL, 1 h, pH 7.4, 37 °C).
`CNC(=O)C[C@H](Cc1ccccc1)NC(=O)[C@@H](Cc1ccc(Cl)cc1Cl)NC(=O)[C@H](N)Cc1ccccc1C#N` gave a viability of 1.03 and 1.07 and 1.1 (Huh-7-ACE2; CellTiter-Glo; 0.0244 µM, 48 h, unit not given; reference: DMSO).
`CCCCCCCCCCCC(=O)N[C@@H](CO)C[C@@H](O)c1cccc(CCCCCC)c1` has a living cells of 88% and 87% and 89% (HeLa; 1 µM, lipidomics treatment).
Under “cell density reduction”, `CCCCNC(=O)c1ccc2nc(CC)c(N(C)Cc3ccc(OC)cc3)n2c1` is recorded as 49% (SH-SY5Y; sulforhodamine B; 100 µM, 72 h).

For quick reference, copied from above:
`CNC(=O)C[C@H](Cc1ccccc1)NC(=O)[C@@H](Cc1ccc(Cl)cc1Cl)NC(=O)[C@H](N)Cc1ccccc1C#N` gave a viability of 1.03 and 1.07 and 1.1 (Huh-7-ACE2; CellTiter-Glo; 0.0244 µM, 48 h, unit not given; reference: DMSO).
`CCCCCCCCCCCC(=O)N[C@@H](CO)C[C@@H](O)c1cccc(CCCCCC)c1` has a living cells of 88% and 87% and 89% (HeLa; 1 µM, lipidomics treatment).
Under “cell density reduction”, `CCCCNC(=O)c1ccc2nc(CC)c(N(C)Cc3ccc(OC)cc3)n2c1` is recorded as 49% (SH-SY5Y; sulforhodamine B; 100 µM, 72 h).
